Assay results gathered from unrelated publications.
Each numbered part is a random draw from the data of one study; scales do not carry over between parts.

Series 1 — action: inhibitor; concentration: 20 µM
Target: Replicase polyprotein 1ab, nsp13 helicase (rep, Severe acute respiratory syndrome coronavirus 2, UniProt P0DTD1)
For `NC(Cc1ccc(O)cc1)C(=O)O` (racemic), the inhibition was 2.1%.
For `N=C(N)NCCN1CCCCCCC1`, the inhibition was 7.36%.
With `CCCCOc1c(C(=O)c2c(F)cc(C)cc2F)c[nH]c2nncc1-2` the inhibition was 7.38%.
With `Cn1ccc2cc3c(cc21)CCN3C(=O)Nc1cccnc1` the inhibition was 1.6%.
`CCOC(=O)CSCCC1NC(C(=O)O)CS1` (stereo not shown) has an inhibition of -3.12%.
For `N#Cc1ccc(COC[C@H]2O[C@@H](n3c(NCc4ccc(Cl)c(Cl)c4)nc4c(N)ncnc43)[C@H](O)[C@@H]2O)cc1`, the inhibition was -0.06%.
`CC(=O)O[C@@]12CO[C@@H]1C[C@@H](O)[C@@]1(C)C(=O)[C@H](O)C3=C(C)[C@@H](O)C[C@@](O)([C@@H](OC(=O)c4ccccc4)[C@H]21)C3(C)C` has an inhibition of 4.93%.
With `CCOc1cc(CC(=O)N[C@@H](CC(C)C)c2ccccc2N2CCCCC2)ccc1C(=O)O` the inhibition was 5%.
`CC(C)[C@@H]1C(=O)N(S(C)(=O)=O)[C@@H]2CCN(C(=O)/C=C/CN3CCCCC3)[C@H]21` gave an inhibition of 7.03%.
For `CCc1cc(C(C)=O)c(O)cc1OCCCCCC(C)(C)c1nn[nH]n1`, the inhibition was 7.19%.
With `O=C(NCC1CCCCN1)c1cc(OCC(F)(F)F)ccc1OCC(F)(F)F` (stereo not shown) the inhibition was 2.82%.
With `O=C(O)c1cc(/N=N/c2ccc(S(=O)(=O)Nc3ccccn3)cc2)ccc1O` the inhibition was 2.84%.
For `Nc1nc(N)c2nc(CNc3ccc(C(=O)N[C@@H](CCC(=O)O)C(=O)O)cc3)cnc2n1`, the inhibition was -0.42%.
With `COc1ccc2c(Oc3ccc(NC(=O)c4c(C)n(CC(C)(C)O)n(-c5ccccc5)c4=O)nc3)ccnc2c1` the inhibition was 0.85%.
With `Nc1nccc(/C=C/c2ccccc2)n1` the inhibition was -1.98%.
`Cc1cc2nc3ccc(N(C)C)cc3[s+]c2cc1N` has an inhibition of 107%.
With `CCc1nn(CCO)c(CC)c1Oc1cc(C#N)cc(C#N)c1` the inhibition was 5.16%.
`CC(=O)O[C@]1(C(C)=O)CC[C@H]2[C@@H]3C=C(Cl)C4=CC(=O)[C@@H]5C[C@@H]5[C@]4(C)[C@H]3CC[C@@]21C` gave an inhibition of 8.58%.
With `CC(C)(CO)Cc1cc(C(C)(C)C)c(O)c(C(C)(C)C)c1` the inhibition was 2.6%.
`CC/C(=C(/c1ccc(/C=C/C(=O)O)cc1)c1ccc2[nH]ncc2c1)c1ccc(F)cc1Cl` has an inhibition of 11.2%.
The inhibition of `CC(N)Cc1c[nH]c2ccc(OCc3cccs3)cc12` (stereo not shown) is reported as 5.85%.
With `Oc1c(Cl)cc(Cl)c(Cl)c1Cc1c(O)c(Cl)cc(Cl)c1Cl` the inhibition was 19.4%.
For `CCCC(=O)C1(c2ccccc2)CCN(C(=O)[C@@H](Cc2ccc(OC)cc2)NC(=O)[C@@H](N)Cc2cncn2C)CC1`, the inhibition was 0.07%.
`COC(=O)[C@H](Cc1cccc(C(=N)N)c1)[C@@H](C)NC(=O)c1ccc(-c2cc[n+]([O-])cc2)cc1` has an inhibition of 10.1%.
The inhibition of `NC1=N[C@@](c2cccc(-c3cncnc3)c2)(c2ccnc(C(F)F)c2)c2cccc(F)c21` is reported as -5.14%.

Series 2 — technique: protein binding microarray; form: double-stranded DNA, one strand shown; sample: in vitro; concentration: not given; reference: not given; direction: higher = stronger binding
Target: Histone acetyltransferase KAT6A, winged helix 1, GST fusion (KAT6A, Homo sapiens, UniProt Q92794, residues 1-85)
Setting: 8-mer, flanks averaged, mean of 2 arrays, mostly near background
Target sequence (chain): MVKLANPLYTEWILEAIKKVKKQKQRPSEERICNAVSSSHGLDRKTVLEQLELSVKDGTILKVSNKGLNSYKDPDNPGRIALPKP
The E-score of `CGAGTCCC` is reported as 0.182.
`CAAAAACG` gave an E-score of 0.00424.
The E-score of `GGAAAGCC` is reported as 0.111.
`TTCCGCAA` gave an E-score of 0.0582.
For `ACTGGTAT`, the E-score was -0.108.
`CGAGAAAG` has an E-score of 0.0776.
For `TGACCTAA`, the E-score was -0.199.
The E-score of `ACAATCGT` is reported as -0.214.

Series 3 — cell line: HEK-293T; observed: pseudovirus infection; organism: VSV pseudotyped with SARS-CoV-2 spike; concentration: 10 µM; time: 16 h; reference: vehicle-treated
`CC(=O)OCC(=O)[C@@]1(O)CC[C@H]2[C@@H]3CCC4=CC(=O)CC[C@]4(C)[C@@]3(F)[C@@H](O)C[C@@]21C` gave a GFP-positive cells of 105%.
With `CCc1cc2c(cc1CC)CC(NC[C@H](O)c1ccc(O)c3[nH]c(=O)ccc13)C2` the GFP-positive cells was 54.7%.
The GFP-positive cells of `Nc1ncnc2c1ncn2[C@@H]1O[C@H](CO)[C@@H](O)[C@@H]1O` is reported as 87.8%.
`C#C[C@]1(O)CC[C@H]2[C@@H]3CCC4=CC(=O)CC[C@@H]4[C@H]3C(=C)C[C@@]21CC` gave a GFP-positive cells of 95.8%.
`CN(C)[C@@H]1C(O)=C(C(N)=O)C(=O)[C@@]2(O)C(O)=C3C(=O)c4c(O)ccc(Cl)c4[C@@H](O)[C@H]3C[C@@H]12` has a GFP-positive cells of 66.6%.

Series 4 — technique: protein-binding microarray; form: double-stranded DNA, one strand shown; sample: in vitro; concentration: 940 nM top; setting: 60-bp whole probe; added: salmon DNA 0.4 mg/ml; reference: random background probes; direction: higher = stronger binding; all sequences stand within: GCCTAGCAC … GTCTTGATTCGCTTGACGCTGCTG
Target: Interferon regulatory factor 5, full length, phosphomimetic (IRF5, Homo sapiens, UniProt Q13568-2, residues 1-514, S451D/S453D/S456D/S462D)
Under “fitted relative affinity”, `TCACTGCTCCTTCTGACACTGTGCTAG` is recorded as 0.373 z-score.
`GACTAACTGAGTATCGAGACGTGCTAG`: “fitted relative affinity” 1.75 z-score.
`TTAGATTTCAGTTTCGATTCGTGCTAG` — result for “fitted relative affinity”: 9.03 z-score.
`CAAGTTTTTATTTTCTGAATGTGCTAG`: “fitted relative affinity” 1.24 z-score.
`CCCCTACTGTATTTGGCCAGGTGCTAG` — result for “fitted relative affinity”: 0.216 z-score.
Under “fitted relative affinity”, `TCAGCTTTCCCGTCCAGACTGTGCTAG` is recorded as 0.774 z-score.
Under “fitted relative affinity”, `TCAGATATCGGGTATCGATTAGTGCTA` is recorded as 3.21 z-score.
`TCATTTCTTTGCTTCACACTGTGCTAG` — result for “fitted relative affinity”: 1.16 z-score.

Series 5 — technique: RNA Bind-n-Seq; form: RNA; sample: in vitro; concentration: 365 nM; reference: no-protein control; direction: higher = stronger binding
Target: RNA binding protein fox-1 homolog 2, RRM domain, GST-SBP tag (RBFOX2, Homo sapiens, UniProt O43251-10, residues 100-194)
Setting: natural RNA segment, single round, ends assumed
Target sequence (chain): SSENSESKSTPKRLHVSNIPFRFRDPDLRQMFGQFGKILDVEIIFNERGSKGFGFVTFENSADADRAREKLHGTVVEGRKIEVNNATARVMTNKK
`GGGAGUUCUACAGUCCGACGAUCCCCAACUUUCAGAACGUCCCUAGCCCUGUCUUCAUCCCUUCCCCUGCCAGUGCCUUACCACCUACCCAGGAAAGCAGGUCCUUGAGCCACCCAGGCCUUACAAUUUGAUCUGGAAUUCUCGGGUGCCAA` — result for “RBNS enrichment (R)”: 0.842.
`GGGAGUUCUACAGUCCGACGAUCCUGUUUCUCCAGUAAAGGACUGGCUUUUGCUUGGGCAGAGGUGGUGCUGCUGGGUGUGCAGCUGCCACAGACUCCAAAGGCGUAGAAGUUUGUGCCAACACACGGAGUCAUGGAAUUCUCGGGUGCCAA` — result for “RBNS enrichment (R)”: 0.536.
For `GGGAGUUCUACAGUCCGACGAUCUUACCUGCACCGCUGUUCUUUGAGCCUCGCUCCACGUAGUGUUCUGUGUUUAUCCACCGGUAGCGAUGCCCACCUUCCAGCCGGGAGAAAUAAAUGGUUUAUAAGAGACCUGGAAUUCUCGGGUGCCAA`, “RBNS enrichment (R)” read 0.353.
Under “RBNS enrichment (R)”, `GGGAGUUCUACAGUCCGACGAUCUUUUGUUUAUAGGAACUUGUAGGGCUCAUUUUGGUUUCAUUGAAACAGUAUCUAAUUAUAAAUUAGCUGUAGAUAUCAGGUGCUUCUGAUGAAGUGAAAAUGUAUAUCUGUGGAAUUCUCGGGUGCCAA` is recorded as 0.419.
Under “RBNS enrichment (R)”, `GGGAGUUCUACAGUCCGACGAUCGUAUUAGACUAUGAGGUUGUGGUCUGGUAAGUCACUCAGCUGGCUCUGUUCAAAUGCAUUGAGAGACAUGACCUCAGAAUACCUAGUGUGAACAUUCUAAGUUGUACUGUUGGAAUUCUCGGGUGCCAA` is recorded as 0.594.
`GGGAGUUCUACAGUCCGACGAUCCCAUCCUUCCUACAGUUAGAGCCCCAGUAGUGCGAGAAGGCCCCAUAUAUGGCAGCAUUCAGCUCUCACCCAACACUUGUGCUGGGCUUCCCUUCAGCAGCCUCCCAGACUGGAAUUCUCGGGUGCCAA` — result for “RBNS enrichment (R)”: 0.519.
`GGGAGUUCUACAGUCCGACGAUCAAUACACCACUCCUCUACCUUCUUUAUUUUCUCAGUGUGGAAAAUGCCUGAUGAAAGCUUUGGGGCCCUCACAGAUGCACAACUCAAGUGCUGAUUCUAUCACUUAUCUAUGGAAUUCUCGGGUGCCAA` — result for “RBNS enrichment (R)”: 0.412.
Under “RBNS enrichment (R)”, `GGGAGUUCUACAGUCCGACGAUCUCAGAUGAUUGGGGCAGAAAAGGCAGGGUGGCCCACACCUGCUCUGACUGCUAGCUUCCCACAGAUCCAUGUCUAGAAUACCAGUGUGCUCAGGAAAAGGAAGUCAUUUCUGGAAUUCUCGGGUGCCAA` is recorded as 0.413.

Mixed results
The inhibition of `CCn1c(-c2nonc2N)nc2cnc(Oc3cccc(NC(=O)c4ccc(OCCN5CCOCC5)cc4)c3)cc21` is reported as -11.9% (Replicase polyprotein 1ab, main protease (rep, Severe acute respiratory syndrome coronavirus 2, UniProt P0DTD1); enzyme activity, inhibitor; 20 µM, hit confirmation, with DTT).

Some of these lines once more (series 2):
`CAAAAACG` gave an E-score of 0.00424.
The E-score of `GGAAAGCC` is reported as 0.111.
`TTCCGCAA` gave an E-score of 0.0582.
For `ACTGGTAT`, the E-score was -0.108.
`CGAGAAAG` has an E-score of 0.0776.
For `TGACCTAA`, the E-score was -0.199.
